Published values of several laboratories.
Each numbered part is a random draw from the data of one study; scales do not carry over between parts.
Sequence of UniProt P42336 (whole entry, unmodified, looked up): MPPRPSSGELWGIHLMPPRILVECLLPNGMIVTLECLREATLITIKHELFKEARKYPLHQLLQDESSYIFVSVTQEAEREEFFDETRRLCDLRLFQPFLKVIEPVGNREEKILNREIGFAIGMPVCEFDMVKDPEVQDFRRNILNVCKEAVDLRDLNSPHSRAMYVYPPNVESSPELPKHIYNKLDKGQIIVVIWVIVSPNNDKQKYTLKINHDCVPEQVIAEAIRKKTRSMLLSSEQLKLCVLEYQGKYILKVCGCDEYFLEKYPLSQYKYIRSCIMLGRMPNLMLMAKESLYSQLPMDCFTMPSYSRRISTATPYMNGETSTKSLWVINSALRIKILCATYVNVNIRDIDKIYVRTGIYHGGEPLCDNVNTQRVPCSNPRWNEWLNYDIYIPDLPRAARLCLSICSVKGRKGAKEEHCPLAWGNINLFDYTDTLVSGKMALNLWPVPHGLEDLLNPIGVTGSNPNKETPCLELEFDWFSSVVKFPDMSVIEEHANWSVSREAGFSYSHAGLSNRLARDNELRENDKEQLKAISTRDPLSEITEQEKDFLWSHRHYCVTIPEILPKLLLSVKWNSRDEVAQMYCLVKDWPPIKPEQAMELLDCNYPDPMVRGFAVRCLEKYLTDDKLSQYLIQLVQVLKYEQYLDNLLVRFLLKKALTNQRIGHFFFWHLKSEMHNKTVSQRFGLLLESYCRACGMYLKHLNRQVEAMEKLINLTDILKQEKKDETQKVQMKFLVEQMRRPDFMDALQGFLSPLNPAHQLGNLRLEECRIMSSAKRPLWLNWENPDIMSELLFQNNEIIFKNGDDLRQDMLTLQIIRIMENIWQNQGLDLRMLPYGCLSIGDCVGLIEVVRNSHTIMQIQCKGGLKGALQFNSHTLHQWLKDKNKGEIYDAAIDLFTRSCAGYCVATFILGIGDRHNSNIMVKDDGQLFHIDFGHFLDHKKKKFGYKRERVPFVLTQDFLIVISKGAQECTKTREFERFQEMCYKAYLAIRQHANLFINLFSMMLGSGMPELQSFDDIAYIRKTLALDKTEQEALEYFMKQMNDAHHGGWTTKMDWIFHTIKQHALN
Sequence of UniProt Q02763 (whole entry, looked up): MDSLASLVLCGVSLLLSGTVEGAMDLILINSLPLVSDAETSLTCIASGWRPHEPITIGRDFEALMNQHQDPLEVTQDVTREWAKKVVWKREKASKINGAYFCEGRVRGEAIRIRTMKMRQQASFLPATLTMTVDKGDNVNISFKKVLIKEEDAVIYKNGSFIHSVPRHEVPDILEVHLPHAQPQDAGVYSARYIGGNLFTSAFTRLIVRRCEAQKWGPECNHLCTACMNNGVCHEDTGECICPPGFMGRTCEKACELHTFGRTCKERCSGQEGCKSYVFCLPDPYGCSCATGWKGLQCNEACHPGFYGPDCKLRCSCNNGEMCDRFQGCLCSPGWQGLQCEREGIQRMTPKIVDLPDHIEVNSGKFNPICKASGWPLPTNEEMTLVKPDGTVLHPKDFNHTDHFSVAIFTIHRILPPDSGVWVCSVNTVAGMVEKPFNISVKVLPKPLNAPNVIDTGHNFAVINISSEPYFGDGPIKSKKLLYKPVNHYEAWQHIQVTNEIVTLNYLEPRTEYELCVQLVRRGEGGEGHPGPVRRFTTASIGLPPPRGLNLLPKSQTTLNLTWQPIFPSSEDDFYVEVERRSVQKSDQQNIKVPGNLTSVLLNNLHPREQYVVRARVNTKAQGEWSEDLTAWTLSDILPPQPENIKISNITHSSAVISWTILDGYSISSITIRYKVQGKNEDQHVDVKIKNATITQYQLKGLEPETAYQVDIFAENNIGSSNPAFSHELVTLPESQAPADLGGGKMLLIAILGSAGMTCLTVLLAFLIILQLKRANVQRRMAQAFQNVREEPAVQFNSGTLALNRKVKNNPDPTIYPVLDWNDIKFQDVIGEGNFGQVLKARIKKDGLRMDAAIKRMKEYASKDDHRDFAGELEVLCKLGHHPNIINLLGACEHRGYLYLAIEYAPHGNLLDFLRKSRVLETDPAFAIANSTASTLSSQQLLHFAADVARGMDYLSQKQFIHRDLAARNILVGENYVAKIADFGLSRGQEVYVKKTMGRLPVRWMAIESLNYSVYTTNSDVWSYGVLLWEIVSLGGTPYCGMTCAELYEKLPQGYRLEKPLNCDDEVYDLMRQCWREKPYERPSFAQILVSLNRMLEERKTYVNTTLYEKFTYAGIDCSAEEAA
Sequence of UniProt Q96PY6 (whole entry, looked up): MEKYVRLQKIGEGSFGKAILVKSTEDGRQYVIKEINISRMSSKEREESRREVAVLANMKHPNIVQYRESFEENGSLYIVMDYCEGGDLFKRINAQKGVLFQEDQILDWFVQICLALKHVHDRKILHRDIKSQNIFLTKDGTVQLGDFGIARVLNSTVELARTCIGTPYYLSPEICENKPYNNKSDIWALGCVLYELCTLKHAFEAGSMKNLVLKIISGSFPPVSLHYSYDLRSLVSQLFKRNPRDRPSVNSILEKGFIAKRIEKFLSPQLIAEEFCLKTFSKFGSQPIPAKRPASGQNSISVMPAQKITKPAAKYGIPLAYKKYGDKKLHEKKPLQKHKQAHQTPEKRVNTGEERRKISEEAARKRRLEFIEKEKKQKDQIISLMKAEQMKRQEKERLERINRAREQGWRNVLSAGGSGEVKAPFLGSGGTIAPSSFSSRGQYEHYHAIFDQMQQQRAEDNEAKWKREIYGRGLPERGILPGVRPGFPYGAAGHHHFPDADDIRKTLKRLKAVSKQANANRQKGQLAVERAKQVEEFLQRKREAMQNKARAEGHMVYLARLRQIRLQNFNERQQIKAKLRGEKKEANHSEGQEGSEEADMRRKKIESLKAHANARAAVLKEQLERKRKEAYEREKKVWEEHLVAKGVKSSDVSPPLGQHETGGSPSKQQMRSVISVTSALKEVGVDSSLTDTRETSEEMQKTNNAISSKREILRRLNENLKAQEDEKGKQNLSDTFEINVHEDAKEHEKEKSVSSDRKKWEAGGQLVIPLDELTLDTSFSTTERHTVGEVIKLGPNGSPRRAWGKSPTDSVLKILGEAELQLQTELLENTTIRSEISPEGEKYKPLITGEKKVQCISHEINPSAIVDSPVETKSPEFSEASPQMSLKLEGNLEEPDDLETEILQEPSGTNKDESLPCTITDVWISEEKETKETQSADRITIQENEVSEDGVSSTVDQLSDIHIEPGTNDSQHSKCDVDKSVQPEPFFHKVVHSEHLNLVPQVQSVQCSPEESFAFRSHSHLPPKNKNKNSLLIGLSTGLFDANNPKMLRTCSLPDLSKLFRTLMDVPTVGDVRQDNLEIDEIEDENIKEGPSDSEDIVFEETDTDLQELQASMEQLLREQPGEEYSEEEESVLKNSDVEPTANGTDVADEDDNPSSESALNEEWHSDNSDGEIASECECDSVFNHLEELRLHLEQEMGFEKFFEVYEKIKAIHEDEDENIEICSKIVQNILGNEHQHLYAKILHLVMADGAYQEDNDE
Sequence of UniProt P21127 (whole entry, looked up): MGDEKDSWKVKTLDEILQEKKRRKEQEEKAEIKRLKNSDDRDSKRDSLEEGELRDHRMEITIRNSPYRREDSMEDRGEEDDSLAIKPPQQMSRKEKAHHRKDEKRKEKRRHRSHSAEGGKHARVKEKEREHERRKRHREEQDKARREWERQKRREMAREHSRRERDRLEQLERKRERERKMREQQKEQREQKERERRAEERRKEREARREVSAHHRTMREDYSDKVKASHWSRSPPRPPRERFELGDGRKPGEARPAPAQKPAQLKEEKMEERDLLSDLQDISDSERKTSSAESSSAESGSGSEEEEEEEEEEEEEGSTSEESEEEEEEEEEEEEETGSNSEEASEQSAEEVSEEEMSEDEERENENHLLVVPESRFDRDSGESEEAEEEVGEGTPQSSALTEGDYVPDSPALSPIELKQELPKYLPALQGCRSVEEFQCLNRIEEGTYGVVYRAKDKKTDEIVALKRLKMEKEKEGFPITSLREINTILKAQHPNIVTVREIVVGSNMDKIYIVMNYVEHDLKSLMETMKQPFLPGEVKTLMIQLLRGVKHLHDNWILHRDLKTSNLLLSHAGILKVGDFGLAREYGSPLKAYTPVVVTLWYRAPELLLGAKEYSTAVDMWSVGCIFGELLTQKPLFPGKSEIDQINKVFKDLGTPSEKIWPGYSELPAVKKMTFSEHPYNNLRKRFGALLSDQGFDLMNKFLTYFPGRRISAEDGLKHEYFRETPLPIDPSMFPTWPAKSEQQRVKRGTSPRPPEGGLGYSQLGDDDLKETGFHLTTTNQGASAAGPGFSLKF
Sequence of UniProt O43353 (whole entry, looked up): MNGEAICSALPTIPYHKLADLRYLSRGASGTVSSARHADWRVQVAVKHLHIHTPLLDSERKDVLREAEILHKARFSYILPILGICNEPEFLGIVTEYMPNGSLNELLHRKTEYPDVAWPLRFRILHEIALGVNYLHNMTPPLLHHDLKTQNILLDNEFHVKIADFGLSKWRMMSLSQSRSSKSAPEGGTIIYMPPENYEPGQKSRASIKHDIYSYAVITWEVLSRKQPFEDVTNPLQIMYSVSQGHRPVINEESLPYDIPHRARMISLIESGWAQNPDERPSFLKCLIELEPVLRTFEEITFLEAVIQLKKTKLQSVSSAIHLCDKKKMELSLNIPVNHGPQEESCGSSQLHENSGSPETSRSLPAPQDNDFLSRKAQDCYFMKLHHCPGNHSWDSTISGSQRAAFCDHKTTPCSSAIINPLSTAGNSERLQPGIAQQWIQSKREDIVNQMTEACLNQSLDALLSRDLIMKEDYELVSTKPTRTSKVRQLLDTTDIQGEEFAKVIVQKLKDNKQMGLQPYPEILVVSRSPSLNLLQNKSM
Sequence of UniProt Q9HC98 (whole entry, looked up): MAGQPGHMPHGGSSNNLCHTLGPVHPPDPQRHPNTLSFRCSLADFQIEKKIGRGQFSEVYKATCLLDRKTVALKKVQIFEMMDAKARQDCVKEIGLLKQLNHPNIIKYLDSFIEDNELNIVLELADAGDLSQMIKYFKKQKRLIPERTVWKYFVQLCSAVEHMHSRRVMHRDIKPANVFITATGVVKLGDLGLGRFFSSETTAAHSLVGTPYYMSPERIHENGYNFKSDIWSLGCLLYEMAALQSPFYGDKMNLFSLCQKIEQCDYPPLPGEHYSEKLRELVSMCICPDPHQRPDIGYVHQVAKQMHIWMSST

Set 1 — organism: Sarcocystis neurona; observed: parasite growth; concentration: 10 µM; time: 96 h; notes: secondary screen
For `Cc1cnc(C(=O)NCCc2ccc(S(=O)(=O)NC(=O)NC3CCCCC3)cc2)cn1`, the inhibition was -4.7%.
`O=C1N[C@H](C(=O)O)CS1` has an inhibition of -0.117%.
The inhibition of `CC(C(=O)O)c1ccc(CC2CCCC2=O)cc1` (stereo not shown) is reported as -16.3%.
The inhibition of `O=c1c(O[C@@H]2O[C@H](CO)[C@H](O)[C@H](O)[C@H]2O)c(-c2ccc(O)c(O)c2)oc2cc(O)cc(O)c12` is reported as -29.7%.

Set 2 — concentration: 1 µM
Structure (SMILES): NS(=O)(=O)c1cc(NC(=O)Cc2ccccc2)ccc1Oc1cccc(Cl)c1
For Macrophage colony-stimulating factor 1 receptor (CSF1R, Homo sapiens, UniProt P07333); cell-free assay, competition with immobilised ligand: remaining binding read 87%.
The remaining binding was 94% (Receptor-interacting serine/threonine-protein kinase 2 (RIPK2, Homo sapiens, UniProt O43353); cell-free assay, competition with immobilised ligand).
The remaining binding was 99% (Serine/threonine-protein kinase 35 (STK35, Homo sapiens, UniProt Q8TDR2); cell-free assay, competition with immobilised ligand).
For Tyrosine-protein kinase receptor TYRO3 (TYRO3, Homo sapiens, UniProt Q06418); cell-free assay, competition with immobilised ligand: remaining binding read 76%.
It gave 100% for remaining binding (ALK tyrosine kinase receptor (ALK, Homo sapiens, UniProt Q9UM73); cell-free assay, competition with immobilised ligand).
Ribosomal protein S6 kinase alpha-5, C-terminal kinase domain (RPS6KA5, Homo sapiens, UniProt O75582); cell-free assay, competition with immobilised ligand — remaining binding: 100%.
It gave 90% for remaining binding (Angiopoietin-1 receptor (TEK, Homo sapiens, UniProt Q02763); cell-free assay, competition with immobilised ligand).
The remaining binding was 96% (Phosphatidylinositol 4,5-bisphosphate 3-kinase catalytic subunit alpha isoform (PIK3CA, Homo sapiens, UniProt P42336, H1047L); cell-free assay, competition with immobilised ligand).
Cyclin-dependent kinase 11B (CDK11B, Homo sapiens, UniProt P21127); cell-free assay, competition with immobilised ligand — remaining binding: 71%.
The remaining binding was 91% (Mitogen-activated protein kinase 4 (MAPK4, Homo sapiens, UniProt P31152); cell-free assay, competition with immobilised ligand).
For Tyrosine-protein kinase JAK1, JH2 (JAK1, Homo sapiens, UniProt P23458); cell-free assay, competition with immobilised ligand: remaining binding read 87%.
It gave 69% for remaining binding (Bone morphogenetic protein receptor type-1A (BMPR1A, Homo sapiens, UniProt P36894); binding, competition with immobilised ligand).
Serine/threonine-protein kinase Sgk1 (SGK1, Homo sapiens, UniProt O00141); cell-free assay, competition with immobilised ligand — remaining binding: 87%.
For Tyrosine-protein kinase SYK (SYK, Homo sapiens, UniProt P43405); cell-free assay, competition with immobilised ligand: remaining binding read 66%.
It gave 79% for remaining binding (Protein-tyrosine kinase 2-beta (PTK2B, Homo sapiens, UniProt Q14289); cell-free assay, competition with immobilised ligand).
Calcium/calmodulin-dependent protein kinase type 1B (PNCK, Homo sapiens, UniProt Q6P2M8); cell-free assay, competition with immobilised ligand — remaining binding: 83%.
For Mitogen-activated protein kinase kinase kinase kinase 1 (MAP4K1, Homo sapiens, UniProt Q92918); cell-free assay, competition with immobilised ligand: remaining binding read 91%.
The remaining binding was 61% (Tyrosine-protein kinase ABL1, non-phosphorylated (ABL1, Homo sapiens, UniProt P00519, T315I); cell-free assay, competition with immobilised ligand).
For Phosphatidylinositol 4,5-bisphosphate 3-kinase catalytic subunit alpha isoform (PIK3CA, Homo sapiens, UniProt P42336, E545K); cell-free assay, competition with immobilised ligand: remaining binding read 77%.
For Vascular endothelial growth factor receptor 3 (FLT4, Homo sapiens, UniProt P35916); cell-free assay, competition with immobilised ligand: remaining binding read 79%.
For Tyrosine-protein kinase ABL1, phosphorylated (ABL1, Homo sapiens, UniProt P00519, F317I); binding: remaining binding read 72%.
The remaining binding was 90% (Death-associated protein kinase 1 (DAPK1, Homo sapiens, UniProt P53355); cell-free assay, competition with immobilised ligand).
The remaining binding was 90% (Death-associated protein kinase 2 (DAPK2, Homo sapiens, UniProt Q9UIK4); cell-free assay, competition with immobilised ligand).

Set 3 — cell line: HaCaT; concentration: 100 µM; time: 18 h
For `N=C(N)NC(=O)Cc1c(Cl)cccc1Cl`, the viability was 118%.
For `O=c1c(-c2ccc(O[C@@H]3O[C@H](CO)[C@@H](O)[C@H](O)[C@H]3O)cc2)coc2cc(O)cc(O)c12`, the viability was 111%.
`Cc1[nH]cnc1CN1CCc2c(c3ccccc3n2C)C1=O` gave a viability of 56%.
`CO/N=C(\C(=O)N[C@@H]1C(=O)N2C(C(=O)OCOC(=O)C(C)(C)C)=C(/C=C\c3scnc3C)CS[C@H]12)c1csc(N)n1` gave a viability of 91.4%.
`CC(C)(CO)[C@@H](O)C(=O)NCCCO` gave a viability of 118%.

Set 4 — SMILES: CCN1/C(=C/C(C)=O)Sc2ccc(OC)cc21; observed: enzyme activity; action: inhibitor; concentration: 0.5 µM; relative to: control
The remaining activity was 83.3% (Ribosomal protein S6 kinase alpha-2 (RPS6KA2, Homo sapiens, UniProt Q15349)).
It gave 118% for remaining activity (Mitogen-activated protein kinase kinase kinase 5 (MAP3K5, Homo sapiens, UniProt Q99683)).
For Mitogen-activated protein kinase 3 (MAPK3, Homo sapiens, UniProt P27361): remaining activity read 105%.
It gave 99.5% for remaining activity (Tyrosine-protein kinase FRK (FRK, Homo sapiens, UniProt P42685)).
The remaining activity was 98.1% (Glycogen synthase kinase-3 beta (GSK3B, Homo sapiens, UniProt P49841)).
It gave 109% for remaining activity (Activin receptor type-1B (ACVR1B, Homo sapiens, UniProt P36896)).
The remaining activity was 109% (Serine/threonine-protein kinase Nek6 (NEK6, Homo sapiens, UniProt Q9HC98)).
Serine/threonine-protein kinase A-Raf (ARAF, Homo sapiens, UniProt P10398) — remaining activity: 128%.
The remaining activity was 99.1% (Fibroblast growth factor receptor 3 (FGFR3, Homo sapiens, UniProt P22607)).
It gave 90.1% for remaining activity (Serine/threonine-protein kinase Nek1 (NEK1, Homo sapiens, UniProt Q96PY6)).
For Ephrin type-A receptor 3 (EPHA3, Homo sapiens, UniProt P29320): remaining activity read 89.9%.
It gave 101% for remaining activity (Serine/threonine-protein kinase TAO2 (TAOK2, Homo sapiens, UniProt Q9UL54)).
The remaining activity was 86.4% (Dual specificity mitogen-activated protein kinase kinase 2 (MAP2K2, Homo sapiens, UniProt P36507)).
For Mitogen-activated protein kinase kinase kinase 14 (MAP3K14, Homo sapiens, UniProt Q99558): remaining activity read 86.1%.
It gave 104% for remaining activity (Rhodopsin kinase GRK7 (GRK7, Homo sapiens, UniProt Q8WTQ7)).
The remaining activity was 94.6% (MAP kinase-activated protein kinase 2 (MAPKAPK2, Homo sapiens, UniProt P49137)).
Tyrosine-protein kinase Mer (MERTK, Homo sapiens, UniProt Q12866) — remaining activity: 88.6%.
The remaining activity was 103% (Tyrosine-protein kinase JAK3 (JAK3, Homo sapiens, UniProt P52333)).
Serine/threonine-protein kinase TBK1 (TBK1, Homo sapiens, UniProt Q9UHD2) — remaining activity: 94.5%.
The remaining activity was 94.5% (Macrophage-stimulating protein receptor (MST1R, Homo sapiens, UniProt Q04912)).
The remaining activity was 99.4% (Tyrosine-protein kinase Lck (LCK, Homo sapiens, UniProt P06239)).
The remaining activity was 102% (Angiopoietin-1 receptor (TEK, Homo sapiens, UniProt Q02763)).
The remaining activity was 102% (Wee1-like protein kinase (WEE1, Homo sapiens, UniProt P30291)).

Excerpt of the above (set 4):
It gave 90.1% for remaining activity (Serine/threonine-protein kinase Nek1 (NEK1, Homo sapiens, UniProt Q96PY6)).
For Mitogen-activated protein kinase kinase kinase 14 (MAP3K14, Homo sapiens, UniProt Q99558): remaining activity read 86.1%.
The remaining activity was 94.6% (MAP kinase-activated protein kinase 2 (MAPKAPK2, Homo sapiens, UniProt P49137)).
The remaining activity was 103% (Tyrosine-protein kinase JAK3 (JAK3, Homo sapiens, UniProt P52333)).
Serine/threonine-protein kinase TBK1 (TBK1, Homo sapiens, UniProt Q9UHD2) — remaining activity: 94.5%.
